Results gathered from unrelated publications.
Every numbered part comes from another study and shows a few of its results, in no order. Substitutions count along the parent as printed.

Set 1
Target: Sal-like protein 4, full length isoform B (SALL4, Homo sapiens, UniProt Q9UJQ4-2, residues 1-616)
Technique: universal PBM
Form: double-stranded DNA, one strand shown
Medium: in vitro
Concentration: not given
Notes: 8-mer, flanks averaged, mean of replicates
Reading: higher = stronger binding
Oligonucleotide | E-score
GAAGTGAA | 0.0923
CCGCTCCG | -0.259
AACCGTGG | -0.203
TAATCCGA | 0.175
GGAGTTTA | 0.16
CTGAAAGC | -0.114
ATGAATTA | 0.364
ATTCGTTA | 0.185
AAATTTCC | 0.107
GCGAGCAA | -0.216
GAGGACCA | -0.161
AATGTCCC | -0.051
GTTATGTA | 0.212

Set 2
Target: Histone acetyltransferase KAT6A, both winged helices, GST fusion (KAT6A, Homo sapiens, UniProt Q92794, residues 1-181)
Technique: protein binding microarray
Form: double-stranded DNA, one strand shown
Medium: in vitro
Concentration: not given
Notes: 8-mer, flanks averaged, mean of 2 arrays, mostly near background
Relative to: not given
Reading: higher = stronger binding
Target sequence (chain): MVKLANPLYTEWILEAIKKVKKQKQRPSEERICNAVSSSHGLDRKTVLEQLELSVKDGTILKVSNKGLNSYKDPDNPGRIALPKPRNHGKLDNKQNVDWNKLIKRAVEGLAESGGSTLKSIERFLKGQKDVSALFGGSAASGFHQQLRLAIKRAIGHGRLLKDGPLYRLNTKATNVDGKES
Oligonucleotide | E-score
GCCGGTCC | 0.271
CGTCGTAG | 0.023
CCGTCGTA | 0.163
CGACTCCG | 0.117
AGTTATGG | -0.165
GGACAGAC | 0.0143
CGATACGC | 0.231
TCGGTTCA | 0.104
CCTCCGCG | 0.291
AACCGCAC | 0.0259

Set 3
Target: CCNB3, cyclin fold, Cln2 fusion (human)
Technique: yeast growth competition, sequencing
Medium: yeast
Notes: weak parent motif
Relative to: not given
Reading: higher = stronger binding
Starting sequence: CDC6 docking peptide (human); TLKGRRLVFDNQL; partner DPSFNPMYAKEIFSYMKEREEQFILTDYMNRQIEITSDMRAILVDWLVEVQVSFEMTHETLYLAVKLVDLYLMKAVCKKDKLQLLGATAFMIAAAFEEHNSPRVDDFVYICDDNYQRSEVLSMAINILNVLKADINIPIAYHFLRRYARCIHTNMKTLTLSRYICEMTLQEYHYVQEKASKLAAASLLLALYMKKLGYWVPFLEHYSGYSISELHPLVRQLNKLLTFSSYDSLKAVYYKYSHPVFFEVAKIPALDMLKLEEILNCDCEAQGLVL
Substitution | normalised enrichment score
TLKGRRLVFDEQL [N11E] | 0.201
TLDGRRLVFDNQL [K3D] | 0.146
PLKGRRLVFDNQL [T1P] | 0.46
TLKGSRLVFDNQL [R5S] | -0.59
TLKGMRLVFDNQL [R5M] | 0.0227
TLKGRRLVFDPQL [N11P] | 0.156
TLKGRRLVFMNQL [D10M] | 0.471
TLKGRRPVFDNQL [L7P] | -0.16
TLVGRRLVFDNQL [K3V] | 0.509
TWKGRRLVFDNQL [L2W] | 0.333
TLKGRCLVFDNQL [R6C] | 0.3
TLYGRRLVFDNQL [K3Y] | 0.631

Further values, each from its own experiment
Molecule | target | assay | test system | conditions | how to read | measurement | result
PhoQ, residues 284 288 289 292 302 303 SLANIV | PhoP, residues 12 14 15 18 19 MHTVL (Escherichia coli, UniProt P23836) | Sort-seq, refers to: YFP reporter | E. coli | PhoQ-PhoP variant library, added: 10 µM Mg2+ | relative to: high Mg2+ state, higher = stronger signaling | fold induction | 8.28

Excerpt of the above (set 2):
Oligonucleotide | E-score
AGTTATGG | -0.165
GGACAGAC | 0.0143
CGATACGC | 0.231
TCGGTTCA | 0.104
